Assay results pooled from the literature.
Numbered parts are unrelated; each lists some results of a single study.
UniProt P10721, sequence (whole entry, unmodified, looked up): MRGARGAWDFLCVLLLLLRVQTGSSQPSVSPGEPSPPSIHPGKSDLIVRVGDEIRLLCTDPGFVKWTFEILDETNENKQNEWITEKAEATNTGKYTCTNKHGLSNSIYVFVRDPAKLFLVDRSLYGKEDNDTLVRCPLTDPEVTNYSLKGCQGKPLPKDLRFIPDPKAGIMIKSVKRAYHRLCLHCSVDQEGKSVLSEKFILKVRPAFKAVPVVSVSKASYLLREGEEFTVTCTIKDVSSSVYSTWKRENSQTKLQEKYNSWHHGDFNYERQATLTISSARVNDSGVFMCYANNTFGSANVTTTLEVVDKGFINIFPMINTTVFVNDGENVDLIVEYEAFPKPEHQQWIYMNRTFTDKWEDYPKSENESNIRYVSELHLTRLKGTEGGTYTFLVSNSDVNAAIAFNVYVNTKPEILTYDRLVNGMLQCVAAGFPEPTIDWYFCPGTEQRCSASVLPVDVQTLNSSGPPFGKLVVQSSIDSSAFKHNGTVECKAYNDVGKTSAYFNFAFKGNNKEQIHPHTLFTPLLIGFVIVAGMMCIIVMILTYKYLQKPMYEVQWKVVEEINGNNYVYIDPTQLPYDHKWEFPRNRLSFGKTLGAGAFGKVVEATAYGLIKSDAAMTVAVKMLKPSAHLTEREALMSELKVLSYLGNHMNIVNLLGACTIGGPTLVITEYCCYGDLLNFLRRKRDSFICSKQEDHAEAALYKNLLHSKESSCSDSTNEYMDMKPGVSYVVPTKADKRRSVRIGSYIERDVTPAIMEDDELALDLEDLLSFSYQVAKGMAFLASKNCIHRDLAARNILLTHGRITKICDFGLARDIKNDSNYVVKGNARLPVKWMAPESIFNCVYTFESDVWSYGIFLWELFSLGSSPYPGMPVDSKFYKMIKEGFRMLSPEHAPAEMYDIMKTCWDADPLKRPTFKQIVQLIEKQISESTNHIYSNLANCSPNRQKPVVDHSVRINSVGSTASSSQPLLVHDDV
UniProt P54762, sequence (whole entry, looked up): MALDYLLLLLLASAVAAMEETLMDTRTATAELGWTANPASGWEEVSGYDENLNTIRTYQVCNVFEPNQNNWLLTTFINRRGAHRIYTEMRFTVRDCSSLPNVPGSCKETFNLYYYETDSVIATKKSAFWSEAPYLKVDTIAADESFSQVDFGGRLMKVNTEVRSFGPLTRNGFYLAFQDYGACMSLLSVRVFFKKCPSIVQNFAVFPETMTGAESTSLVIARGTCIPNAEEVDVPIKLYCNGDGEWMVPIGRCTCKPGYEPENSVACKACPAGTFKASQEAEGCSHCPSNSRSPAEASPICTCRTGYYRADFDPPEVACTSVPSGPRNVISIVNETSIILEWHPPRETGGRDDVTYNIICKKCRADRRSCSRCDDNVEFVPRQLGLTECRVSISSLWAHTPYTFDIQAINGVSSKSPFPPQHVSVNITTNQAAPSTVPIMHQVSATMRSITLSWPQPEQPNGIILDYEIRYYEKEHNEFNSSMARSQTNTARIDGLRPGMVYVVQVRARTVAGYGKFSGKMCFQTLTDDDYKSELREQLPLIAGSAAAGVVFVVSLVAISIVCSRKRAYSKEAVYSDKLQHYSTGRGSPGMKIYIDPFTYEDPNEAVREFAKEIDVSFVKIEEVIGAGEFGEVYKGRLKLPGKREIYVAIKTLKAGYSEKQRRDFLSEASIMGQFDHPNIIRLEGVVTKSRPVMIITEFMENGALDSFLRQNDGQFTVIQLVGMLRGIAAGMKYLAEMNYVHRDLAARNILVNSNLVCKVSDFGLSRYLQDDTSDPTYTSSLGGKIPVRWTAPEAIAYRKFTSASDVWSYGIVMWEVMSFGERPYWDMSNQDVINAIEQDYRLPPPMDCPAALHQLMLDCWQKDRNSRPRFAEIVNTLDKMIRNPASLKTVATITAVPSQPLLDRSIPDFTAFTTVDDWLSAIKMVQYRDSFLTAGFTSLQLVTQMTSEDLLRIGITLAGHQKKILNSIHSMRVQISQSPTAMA
UniProt Q96BR1, sequence (whole entry, looked up): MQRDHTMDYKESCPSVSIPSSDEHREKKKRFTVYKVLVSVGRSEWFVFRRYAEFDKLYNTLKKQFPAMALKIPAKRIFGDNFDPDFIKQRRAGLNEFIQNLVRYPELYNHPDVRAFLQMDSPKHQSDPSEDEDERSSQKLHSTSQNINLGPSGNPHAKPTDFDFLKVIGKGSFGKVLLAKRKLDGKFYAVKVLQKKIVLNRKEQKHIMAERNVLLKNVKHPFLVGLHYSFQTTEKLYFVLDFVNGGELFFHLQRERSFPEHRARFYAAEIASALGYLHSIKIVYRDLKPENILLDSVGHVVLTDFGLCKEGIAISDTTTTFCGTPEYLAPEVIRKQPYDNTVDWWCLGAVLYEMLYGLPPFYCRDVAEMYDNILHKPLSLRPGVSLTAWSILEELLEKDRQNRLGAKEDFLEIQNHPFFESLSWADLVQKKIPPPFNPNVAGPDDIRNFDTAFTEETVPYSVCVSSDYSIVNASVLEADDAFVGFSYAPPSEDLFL
UniProt Q13177, sequence (whole entry, looked up): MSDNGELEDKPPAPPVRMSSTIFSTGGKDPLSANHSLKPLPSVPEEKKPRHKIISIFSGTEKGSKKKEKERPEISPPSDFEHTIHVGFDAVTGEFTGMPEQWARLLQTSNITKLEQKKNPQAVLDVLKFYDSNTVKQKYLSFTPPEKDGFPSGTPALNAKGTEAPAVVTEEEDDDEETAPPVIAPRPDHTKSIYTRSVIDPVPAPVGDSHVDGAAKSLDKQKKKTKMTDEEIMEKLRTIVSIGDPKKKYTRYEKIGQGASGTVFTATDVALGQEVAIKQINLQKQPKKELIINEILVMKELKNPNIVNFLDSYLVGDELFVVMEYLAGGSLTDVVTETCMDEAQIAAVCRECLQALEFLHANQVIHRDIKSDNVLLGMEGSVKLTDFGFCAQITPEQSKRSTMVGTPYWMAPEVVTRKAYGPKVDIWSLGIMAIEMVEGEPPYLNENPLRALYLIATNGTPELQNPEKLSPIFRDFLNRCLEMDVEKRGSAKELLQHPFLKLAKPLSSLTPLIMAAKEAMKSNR
UniProt Q9HC98, sequence (whole entry, looked up): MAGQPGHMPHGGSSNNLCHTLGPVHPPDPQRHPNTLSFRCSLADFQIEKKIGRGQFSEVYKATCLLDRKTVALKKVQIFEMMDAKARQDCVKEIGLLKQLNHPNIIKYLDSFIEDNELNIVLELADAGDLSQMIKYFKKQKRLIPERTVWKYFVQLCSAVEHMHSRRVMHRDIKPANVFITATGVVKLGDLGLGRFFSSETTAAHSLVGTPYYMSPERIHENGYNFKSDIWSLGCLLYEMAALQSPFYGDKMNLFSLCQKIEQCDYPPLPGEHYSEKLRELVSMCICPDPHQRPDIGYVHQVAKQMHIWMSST
UniProt P42685, sequence (whole entry, looked up): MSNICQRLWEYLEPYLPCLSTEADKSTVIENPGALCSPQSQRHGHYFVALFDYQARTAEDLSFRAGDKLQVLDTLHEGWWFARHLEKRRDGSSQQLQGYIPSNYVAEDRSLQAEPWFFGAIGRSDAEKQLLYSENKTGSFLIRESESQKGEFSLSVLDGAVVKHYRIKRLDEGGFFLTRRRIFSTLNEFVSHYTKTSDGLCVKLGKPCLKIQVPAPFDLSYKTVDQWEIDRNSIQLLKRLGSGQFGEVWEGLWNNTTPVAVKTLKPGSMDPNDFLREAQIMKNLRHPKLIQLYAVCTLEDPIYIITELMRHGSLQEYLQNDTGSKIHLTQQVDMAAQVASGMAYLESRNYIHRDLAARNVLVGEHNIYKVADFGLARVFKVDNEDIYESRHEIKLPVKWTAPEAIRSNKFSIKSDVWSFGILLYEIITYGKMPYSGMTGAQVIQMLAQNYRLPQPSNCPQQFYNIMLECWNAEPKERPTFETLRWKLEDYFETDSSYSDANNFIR
UniProt Q9UQM7, sequence (whole entry, looked up): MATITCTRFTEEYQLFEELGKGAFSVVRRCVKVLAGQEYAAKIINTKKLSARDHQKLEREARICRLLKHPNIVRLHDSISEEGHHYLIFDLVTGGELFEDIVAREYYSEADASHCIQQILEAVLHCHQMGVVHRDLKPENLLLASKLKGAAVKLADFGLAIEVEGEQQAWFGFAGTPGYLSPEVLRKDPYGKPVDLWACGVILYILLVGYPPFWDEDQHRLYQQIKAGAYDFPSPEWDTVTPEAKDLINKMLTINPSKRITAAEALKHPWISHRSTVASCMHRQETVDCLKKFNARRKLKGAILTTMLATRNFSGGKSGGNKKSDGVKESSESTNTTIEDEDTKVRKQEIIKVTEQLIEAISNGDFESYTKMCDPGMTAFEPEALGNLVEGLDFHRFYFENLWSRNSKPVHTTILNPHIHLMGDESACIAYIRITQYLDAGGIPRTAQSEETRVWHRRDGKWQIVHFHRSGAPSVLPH
UniProt P36896, sequence (whole entry, looked up): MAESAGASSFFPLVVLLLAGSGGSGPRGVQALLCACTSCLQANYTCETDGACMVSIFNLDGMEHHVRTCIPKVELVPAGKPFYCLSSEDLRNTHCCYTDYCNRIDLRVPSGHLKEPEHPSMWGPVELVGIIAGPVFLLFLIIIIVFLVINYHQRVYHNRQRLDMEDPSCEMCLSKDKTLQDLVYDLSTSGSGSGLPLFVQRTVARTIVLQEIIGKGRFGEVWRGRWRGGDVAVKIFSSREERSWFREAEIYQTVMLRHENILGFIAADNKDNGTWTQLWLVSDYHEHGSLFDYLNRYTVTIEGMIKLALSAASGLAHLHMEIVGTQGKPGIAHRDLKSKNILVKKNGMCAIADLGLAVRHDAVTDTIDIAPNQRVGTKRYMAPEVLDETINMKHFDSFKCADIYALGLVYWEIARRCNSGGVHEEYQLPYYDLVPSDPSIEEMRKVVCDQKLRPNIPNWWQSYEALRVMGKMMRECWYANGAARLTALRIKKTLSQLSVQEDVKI

Set 1 — SMILES: O=C1NC(=O)c2c1c1c3ccccc3[nH]c1n1cncc21; effect on: enzyme activity; mode: inhibitor; tested at: 0.5 µM; reference: control
| target | remaining activity |
| --- | --- |
| GRK7 (Homo sapiens, UniProt Q8WTQ7) | 96.2% |
| MERTK (Homo sapiens, UniProt Q12866) | 53.9% |
| LCK (Homo sapiens, UniProt P06239) | 87.1% |
| MAPK3 (Homo sapiens, UniProt P27361) | 87.8% |
| ACVR1B (Homo sapiens, UniProt P36896) | 103% |
| MAP3K5 (Homo sapiens, UniProt Q99683) | 97.8% |
| CSNK1G2 (Homo sapiens, UniProt P78368) | 63.4% |
| EPHA3 (Homo sapiens, UniProt P29320) | 105% |
| TBK1 (Homo sapiens, UniProt Q9UHD2) | 81.9% |
| MAPKAPK2 (Homo sapiens, UniProt P49137) | 98.9% |
| NEK1 (Homo sapiens, UniProt Q96PY6) | 75.2% |
| NEK6 (Homo sapiens, UniProt Q9HC98) | 88.7% |
| MAP2K2 (Homo sapiens, UniProt P36507) | 85.9% |
| FRK (Homo sapiens, UniProt P42685) | 96.8% |

Set 2 — effect on: cell-free assay; method: competition with immobilised ligand; tested at: 1 µM
Structure (SMILES): C[C@H](c1ccc(F)cc1)N(Cc1cccc(C(=O)O)c1)C(=O)c1cnc2ccccc2c1
| target | remaining binding [%] |
| --- | --- |
| MAP2K7 (Homo sapiens, UniProt O14733) | 100 |
| SGK3 (Homo sapiens, UniProt Q96BR1) | 100 |
| DCLK3 (Homo sapiens, UniProt Q9C098) | 100 |
| BMX (Homo sapiens, UniProt P51813) | 99 |
| KIT (Homo sapiens, UniProt P10721) | 100 |
| PAK2 (Homo sapiens, UniProt Q13177) | 100 |
| HIPK2 (Homo sapiens, UniProt Q9H2X6) | 100 |
| KIT (Homo sapiens, UniProt P10721, T670I/V559D) | 98 |
| EPHB1 (Homo sapiens, UniProt P54762) | 83 |
| KIT (Homo sapiens, UniProt P10721, D816V) | 100 |
| KIT (Homo sapiens, UniProt P10721, A829P) | 92 |
| CAMK2A (Homo sapiens, UniProt Q9UQM7) | 97 |
| RIPK1 (Homo sapiens, UniProt Q13546) | 100 |

Set 3 — method: RNAcompete; form: RNA; medium: in vitro; tested at: 20 nM; notes: 7-mer, probes averaged, single round; reference: mean of 7-mers; reading: higher = stronger binding
Target: PABPC1L2, full length, GST fusion (mouse, UniProt A0ABA7IW68)
Target sequence (chain): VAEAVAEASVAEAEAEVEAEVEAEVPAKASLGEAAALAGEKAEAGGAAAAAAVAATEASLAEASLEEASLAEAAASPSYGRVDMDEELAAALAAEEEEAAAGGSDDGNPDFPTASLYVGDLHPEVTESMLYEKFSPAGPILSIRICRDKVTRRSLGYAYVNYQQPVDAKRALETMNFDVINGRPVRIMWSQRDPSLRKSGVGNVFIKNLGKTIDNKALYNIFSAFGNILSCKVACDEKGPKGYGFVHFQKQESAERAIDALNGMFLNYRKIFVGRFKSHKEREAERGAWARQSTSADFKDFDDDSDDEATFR
| Strand | 7-mer Z-score |
| --- | --- |
| UGGUACA | -0.144 |
| UGUAUUU | -0.177 |
| AAUAUGU | 0.423 |
| UCGCGCU | -0.362 |
| AGGAUGG | 0.314 |
| UAGGCUA | -0.0482 |
| GUCACCG | -0.0736 |
| UCAGGCA | 0.0134 |

Set 4 — method: aptamer microarray, sandwich; form: DNA with 2'F-ANA; medium: in vitro; tested at: 200 nM; together with: Cy3 exosite-II aptamer, 400 nM; reading: higher = stronger binding; strand: GGTTGGTGTGGTTGG
Target: Prothrombin, mature alpha-thrombin (F2, Homo sapiens, UniProt P00734)
Notes: whole 15-mer aptamer, many near background
| Modification | mean fluorescence intensity [a.u.] |
| --- | --- |
| 2'F-ANA at 1 2 3 6 10 12 13 14 | 51.5 |
| 2'F-ANA at 4 5 8 9 10 12 13 | 48.1 |
| 2'F-ANA at 6 8 13 14 15 | 169 |
| 2'F-ANA at 2 4 5 9 11 12 13 15 | 71.5 |
| 2'F-ANA at 3 4 5 6 7 8 10 | 49.9 |
| 2'F-ANA at 4 6 8 10 11 15 | 66.6 |
| 2'F-ANA at 2 3 8 10 11 12 14 15 | 271 |
| 2'F-ANA at 1 2 5 8 12 15 | 115 |

Repeated from above (set 3):
| Strand | 7-mer Z-score |
| --- | --- |
| UAGGCUA | -0.0482 |
| AAUAUGU | 0.423 |
| GUCACCG | -0.0736 |
| UGUAUUU | -0.177 |
| UGGUACA | -0.144 |
